Experimental data collected from several papers.
Protocols differ between the studies behind these lines.

| SMILES | target or system | assay | test system | setting | scale | endpoint | result |
| --- | --- | --- | --- | --- | --- | --- | --- |
| CCCCCCCCCC(=O)N[C@@H](Cc1c[nH]c2ccccc12)C(=O)N[C@H](CC(N)=O)C(=O)N[C@@H](CC(=O)O)C(=O)N[C@@H]1C(=O)NCC(=O)N[C@@H](CCCN)C(=O)N[C@@H](CC(=O)O)C(=O)N[C@H](C)C(=O)N[C@@H](CC(=O)O)C(=O)NCC(=O)N[C@H](CO)C(=O)N[C@@H]([C@H](C)CC(=O)O)C(=O)N[C@@H](CC(=O)c2ccccc2N)C(=O)O[C@@H]1C | Staphylococcus aureus |  | SH1000 | added: phosphatidylethanolamine, molar ratio 0.5 |  | MIC | 1 µg/mL |
| Cc1ccc(CCC(=O)Nc2nnc(S(N)(=O)=O)s2)cc1 | Bifidobacterium longum |  | HM-846 |  |  | MIC | > 784 µM |
| Cc1c(CN(C)C(=O)/C=C/c2cnc3c(c2)CCC(=O)N3)oc2ccccc12 | Escherichia coli | broth microdilution | AR-0114 |  |  | MIC | > 32 µg/mL |
| CO/N=c1\cc2n(-c3ccc(Cl)cc3)c3ccccc3nc-2cc1Nc1ccc(Cl)cc1 | Mycobacterium avium | bacterial growth | clinical isolate |  |  | MIC | > 30 µM |
| N=C(N)c1cccc(OCc2ccc(COc3cccc(C(=N)N)c3)cc2)c1 | Escherichia coli |  | W3110 | in combination, checkerboard, added: rifampicin |  | MIC | 25 µg/mL |
| C[C@@H](c1ncncc1F)[C@](O)(Cn1cncn1)c1ccc(F)cc1F | Paecilomyces variotii |  | MYA-3630 |  |  | MIC | 0.06 µg/mL |
| O/N=c1\cc2n(-c3ccc(Cl)cc3)c3ccccc3nc-2cc1Nc1ccc(Cl)cc1 | Mycobacterium avium | bacterial growth | clinical isolate |  |  | MIC | > 30 µM |
| CCCCCCC#Cc1cncc(-c2nnc(SCc3ccc(Cl)cc3)n2C)c1 | Mycobacterium avium |  |  |  | no activity below value | MIC | ≥ 200 µM |
| CC(=O)NC[C@H]1CN(c2ccc(N3CCOCC3)c(F)c2)C(=O)O1 | Bifidobacterium longum |  | HM-848 |  |  | MIC | < 2.96 µM |
| CCCc1cc(C)[nH]c(=O)c1CNC(=O)c1cc(-c2ccnc(N3CCN(C)CC3)c2)cc2c1cnn2C(C)C | OCI-Ly1 |  |  | 0.1 µM, 120 h |  | viability | 92.9% |
| C[C@H]1[C@H](NC(=O)/C(=N\OC(C)(C)C(=O)O)c2csc(N)n2)C(=O)N1S(=O)(=O)O | Shigella flexneri | agar dilution | ATCC 12022 susceptible |  |  | MIC | 0.125 µg/mL |
| O=C(NCc1ccccc1)c1c(/N=C/c2c(O)ccc3ccccc23)sc2c1CCCC2 | OCI-Ly1 |  |  | 0.1 µM, 120 h |  | viability | 92.4% |
| N=C(N)c1ccc(OCc2ccccc2COc2ccc(C(=N)N)cc2)cc1 | Escherichia coli |  | BW25113 | compound alone, rifampicin checkerboard |  | MIC | > 200 µg/mL |
| CC1(C)SC2C(NC(=O)C(NC(=O)C3=C(O)C(Cc4ccc(F)cc4)NC3=O)c3ccccc3)C(=O)N2C1C(=O)O (centres unmarked) | Escherichia coli | broth microdilution | BW25113 wild type | 18 h |  | MIC | 12.5 µg/mL |
| CC1(C)S[C@@H]2[C@H](NC(=O)[C@H](N)c3ccccc3)C(=O)N2[C@H]1C(=O)O | Pseudomonas aeruginosa |  | clinical isolate RKI-No_628/16 |  |  | MIC | > 16 µg/mL |
| CCOC(=O)CNC(=O)CO/N=c1\cc2n(-c3ccc(Cl)cc3)c3ccccc3nc-2cc1Nc1ccc(Cl)cc1 | Mycobacterium avium | bacterial growth | clinical isolate |  |  | MIC | > 30 µM |
| CC(=O)C1=NN(c2ccccc2)C(=C(C#N)C(=O)c2ccc(Nc3cnccn3)cc2)S1 | Staphylococcus aureus and Bacillus subtilis |  |  | Gram-positive bacteria |  | MIC | 100 µg/mL |

For quick reference, copied from above:
| SMILES | target or system | assay | test system | setting | scale | endpoint | result |
| --- | --- | --- | --- | --- | --- | --- | --- |
| N=C(N)c1cccc(OCc2ccc(COc3cccc(C(=N)N)c3)cc2)c1 | Escherichia coli |  | W3110 | in combination, checkerboard, added: rifampicin |  | MIC | 25 µg/mL |
| C[C@@H](c1ncncc1F)[C@](O)(Cn1cncn1)c1ccc(F)cc1F | Paecilomyces variotii |  | MYA-3630 |  |  | MIC | 0.06 µg/mL |
